Published values pooled from the literature.
Each numbered part is a random draw from the data of one study; scales do not carry over between parts. Changes are numbered by the printed parent chain.
UniProt P06239, sequence (whole entry, looked up): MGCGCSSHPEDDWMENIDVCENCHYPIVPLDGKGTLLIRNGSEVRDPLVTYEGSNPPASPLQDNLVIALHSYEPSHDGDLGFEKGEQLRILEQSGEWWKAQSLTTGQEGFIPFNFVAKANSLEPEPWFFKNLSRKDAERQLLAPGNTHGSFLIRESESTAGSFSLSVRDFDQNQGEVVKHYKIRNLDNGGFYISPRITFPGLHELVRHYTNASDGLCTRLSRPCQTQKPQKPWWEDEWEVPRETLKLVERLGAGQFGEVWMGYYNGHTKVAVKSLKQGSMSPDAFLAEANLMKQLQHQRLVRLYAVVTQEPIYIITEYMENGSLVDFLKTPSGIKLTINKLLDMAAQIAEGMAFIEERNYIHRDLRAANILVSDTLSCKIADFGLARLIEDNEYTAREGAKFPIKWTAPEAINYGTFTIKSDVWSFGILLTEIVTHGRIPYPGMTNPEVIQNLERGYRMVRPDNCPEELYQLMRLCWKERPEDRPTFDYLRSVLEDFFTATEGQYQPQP
UniProt Q13554, sequence (whole entry, looked up): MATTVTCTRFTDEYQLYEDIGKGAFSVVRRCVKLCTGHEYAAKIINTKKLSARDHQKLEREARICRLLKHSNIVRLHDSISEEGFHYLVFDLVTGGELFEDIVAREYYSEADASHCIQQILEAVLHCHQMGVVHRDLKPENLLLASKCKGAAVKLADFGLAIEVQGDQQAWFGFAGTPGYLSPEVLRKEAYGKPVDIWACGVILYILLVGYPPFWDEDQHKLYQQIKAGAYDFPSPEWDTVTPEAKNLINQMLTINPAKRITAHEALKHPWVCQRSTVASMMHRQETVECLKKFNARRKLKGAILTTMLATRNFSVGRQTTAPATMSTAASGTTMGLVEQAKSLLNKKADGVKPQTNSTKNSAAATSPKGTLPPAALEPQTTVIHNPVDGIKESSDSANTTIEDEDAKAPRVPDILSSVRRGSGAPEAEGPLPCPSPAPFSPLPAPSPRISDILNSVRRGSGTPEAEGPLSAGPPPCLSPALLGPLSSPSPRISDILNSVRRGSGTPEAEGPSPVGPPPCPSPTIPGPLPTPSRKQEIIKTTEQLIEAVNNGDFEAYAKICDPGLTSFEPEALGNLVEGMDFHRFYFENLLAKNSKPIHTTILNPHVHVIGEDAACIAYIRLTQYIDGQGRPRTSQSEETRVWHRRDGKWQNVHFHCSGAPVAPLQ
UniProt P22612, sequence (whole entry, looked up): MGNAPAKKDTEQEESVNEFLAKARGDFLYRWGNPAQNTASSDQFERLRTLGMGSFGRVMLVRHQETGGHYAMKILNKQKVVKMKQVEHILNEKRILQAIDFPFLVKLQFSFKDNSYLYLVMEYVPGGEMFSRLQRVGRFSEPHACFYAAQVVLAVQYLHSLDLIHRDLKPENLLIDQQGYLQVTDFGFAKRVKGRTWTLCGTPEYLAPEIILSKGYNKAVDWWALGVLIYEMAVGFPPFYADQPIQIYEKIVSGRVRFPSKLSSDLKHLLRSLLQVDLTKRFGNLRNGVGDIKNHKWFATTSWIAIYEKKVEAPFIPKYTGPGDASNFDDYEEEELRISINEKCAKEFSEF
UniProt Q13233, sequence (whole entry, looked up): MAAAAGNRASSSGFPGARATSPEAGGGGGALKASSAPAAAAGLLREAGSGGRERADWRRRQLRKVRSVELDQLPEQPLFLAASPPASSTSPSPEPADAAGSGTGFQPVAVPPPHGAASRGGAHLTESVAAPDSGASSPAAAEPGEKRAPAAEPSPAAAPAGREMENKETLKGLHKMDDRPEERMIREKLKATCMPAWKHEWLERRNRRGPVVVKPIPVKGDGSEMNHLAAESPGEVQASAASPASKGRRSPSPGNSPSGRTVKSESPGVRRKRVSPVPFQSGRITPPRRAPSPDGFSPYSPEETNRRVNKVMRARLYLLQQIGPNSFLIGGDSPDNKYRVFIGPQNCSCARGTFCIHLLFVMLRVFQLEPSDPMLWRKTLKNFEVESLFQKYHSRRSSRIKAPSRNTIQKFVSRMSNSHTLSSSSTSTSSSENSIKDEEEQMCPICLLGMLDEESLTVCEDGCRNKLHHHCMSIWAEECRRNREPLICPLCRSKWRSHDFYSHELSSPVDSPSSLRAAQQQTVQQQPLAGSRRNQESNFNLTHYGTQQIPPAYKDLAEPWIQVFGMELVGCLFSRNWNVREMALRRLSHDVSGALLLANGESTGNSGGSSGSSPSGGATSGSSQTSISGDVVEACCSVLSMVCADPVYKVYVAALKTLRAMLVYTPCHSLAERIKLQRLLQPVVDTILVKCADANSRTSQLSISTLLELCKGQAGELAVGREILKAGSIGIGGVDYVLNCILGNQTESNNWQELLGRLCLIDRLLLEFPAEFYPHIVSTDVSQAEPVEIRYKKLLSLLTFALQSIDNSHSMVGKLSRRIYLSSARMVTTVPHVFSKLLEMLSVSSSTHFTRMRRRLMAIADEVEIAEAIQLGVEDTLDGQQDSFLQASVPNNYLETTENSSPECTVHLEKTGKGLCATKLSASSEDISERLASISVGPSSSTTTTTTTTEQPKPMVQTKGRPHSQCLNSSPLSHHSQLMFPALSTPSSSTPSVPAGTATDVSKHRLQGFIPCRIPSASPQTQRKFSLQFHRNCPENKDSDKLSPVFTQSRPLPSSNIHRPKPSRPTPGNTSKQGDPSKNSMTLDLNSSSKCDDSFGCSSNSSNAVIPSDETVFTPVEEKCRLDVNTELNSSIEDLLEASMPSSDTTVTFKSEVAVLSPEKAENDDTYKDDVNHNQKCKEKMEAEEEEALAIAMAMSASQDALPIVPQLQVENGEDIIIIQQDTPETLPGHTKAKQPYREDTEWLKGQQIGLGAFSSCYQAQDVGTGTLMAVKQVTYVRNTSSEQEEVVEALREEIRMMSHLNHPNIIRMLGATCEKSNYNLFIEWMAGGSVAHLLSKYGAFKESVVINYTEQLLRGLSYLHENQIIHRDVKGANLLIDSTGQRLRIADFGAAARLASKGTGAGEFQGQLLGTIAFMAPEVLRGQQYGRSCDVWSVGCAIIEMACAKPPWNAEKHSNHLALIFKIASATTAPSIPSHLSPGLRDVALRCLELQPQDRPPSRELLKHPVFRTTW
UniProt P53671, sequence (whole entry, looked up): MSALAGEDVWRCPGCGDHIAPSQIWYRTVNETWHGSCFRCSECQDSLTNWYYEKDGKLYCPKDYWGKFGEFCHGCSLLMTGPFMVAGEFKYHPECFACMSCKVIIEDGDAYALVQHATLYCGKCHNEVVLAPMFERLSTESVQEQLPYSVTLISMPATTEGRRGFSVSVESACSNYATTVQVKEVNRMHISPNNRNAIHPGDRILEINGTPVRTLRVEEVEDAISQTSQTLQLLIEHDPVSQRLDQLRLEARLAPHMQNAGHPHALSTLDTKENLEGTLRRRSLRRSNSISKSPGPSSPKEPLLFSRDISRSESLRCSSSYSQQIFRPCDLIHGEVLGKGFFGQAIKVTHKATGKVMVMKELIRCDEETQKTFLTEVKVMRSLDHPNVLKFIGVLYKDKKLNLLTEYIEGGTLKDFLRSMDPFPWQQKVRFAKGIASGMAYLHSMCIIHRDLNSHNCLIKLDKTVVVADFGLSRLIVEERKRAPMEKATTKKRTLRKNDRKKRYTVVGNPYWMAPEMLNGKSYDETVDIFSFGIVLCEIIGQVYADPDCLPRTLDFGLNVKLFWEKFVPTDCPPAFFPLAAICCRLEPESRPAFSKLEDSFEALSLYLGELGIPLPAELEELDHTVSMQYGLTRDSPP
UniProt P78368, sequence (whole entry, looked up): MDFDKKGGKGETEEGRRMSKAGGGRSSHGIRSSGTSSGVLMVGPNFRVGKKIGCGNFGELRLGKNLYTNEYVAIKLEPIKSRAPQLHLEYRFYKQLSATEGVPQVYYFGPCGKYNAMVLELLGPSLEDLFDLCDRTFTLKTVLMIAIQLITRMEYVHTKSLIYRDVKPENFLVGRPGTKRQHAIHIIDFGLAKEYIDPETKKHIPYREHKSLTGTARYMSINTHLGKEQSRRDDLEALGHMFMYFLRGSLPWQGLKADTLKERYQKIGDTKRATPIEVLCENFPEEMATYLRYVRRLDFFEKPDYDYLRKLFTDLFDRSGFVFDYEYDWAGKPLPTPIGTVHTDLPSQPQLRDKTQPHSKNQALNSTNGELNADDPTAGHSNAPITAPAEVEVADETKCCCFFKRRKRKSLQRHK
UniProt Q2M2I8, sequence (whole entry, looked up): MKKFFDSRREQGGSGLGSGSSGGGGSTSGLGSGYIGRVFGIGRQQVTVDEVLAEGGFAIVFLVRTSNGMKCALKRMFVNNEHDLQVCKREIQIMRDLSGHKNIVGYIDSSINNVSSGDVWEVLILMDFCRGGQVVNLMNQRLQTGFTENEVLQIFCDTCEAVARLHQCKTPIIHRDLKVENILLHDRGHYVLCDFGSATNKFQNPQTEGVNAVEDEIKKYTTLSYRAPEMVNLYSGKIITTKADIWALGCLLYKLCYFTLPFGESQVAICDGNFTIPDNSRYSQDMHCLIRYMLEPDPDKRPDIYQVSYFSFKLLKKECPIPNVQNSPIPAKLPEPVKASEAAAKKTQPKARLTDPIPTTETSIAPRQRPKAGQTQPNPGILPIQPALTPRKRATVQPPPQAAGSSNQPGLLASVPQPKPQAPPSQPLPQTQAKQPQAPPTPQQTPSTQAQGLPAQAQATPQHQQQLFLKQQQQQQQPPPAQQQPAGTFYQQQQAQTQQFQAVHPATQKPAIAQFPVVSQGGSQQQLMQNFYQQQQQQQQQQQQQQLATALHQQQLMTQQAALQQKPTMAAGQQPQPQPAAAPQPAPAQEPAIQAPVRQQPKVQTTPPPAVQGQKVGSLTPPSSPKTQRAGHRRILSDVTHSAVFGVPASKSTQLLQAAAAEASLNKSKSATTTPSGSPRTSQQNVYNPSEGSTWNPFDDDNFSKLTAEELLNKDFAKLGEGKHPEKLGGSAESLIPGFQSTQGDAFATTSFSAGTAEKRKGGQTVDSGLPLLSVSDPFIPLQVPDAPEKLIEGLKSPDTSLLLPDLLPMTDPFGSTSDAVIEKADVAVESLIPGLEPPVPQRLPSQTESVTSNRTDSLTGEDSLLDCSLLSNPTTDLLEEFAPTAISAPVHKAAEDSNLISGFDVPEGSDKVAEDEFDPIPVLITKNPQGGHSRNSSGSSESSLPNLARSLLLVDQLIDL

Series 1
SMILES: Cc1cc(C)c(-n2ccn3nc(-c4cccnc4)cc23)cc1NC(=O)c1cc(C#N)cc(S(F)(F)(F)(F)F)c1
Concentration: 0.1 µM
Measurement: remaining binding
Vascular endothelial growth factor receptor 2 (KDR, Homo sapiens, UniProt P35968); cell-free assay, competition with immobilised ligand: 76.2%
Leucine-rich repeat serine/threonine-protein kinase 2 (LRRK2, Homo sapiens, UniProt Q5S007, G2019S); cell-free assay, competition with immobilised ligand: 73.9%
Tyrosine-protein kinase ABL1, non-phosphorylated (ABL1, Homo sapiens, UniProt P00519, H396P); cell-free assay, competition with immobilised ligand: 69%
Dual specificity tyrosine-phosphorylation-regulated kinase 1A (DYRK1A, Homo sapiens, UniProt Q13627); cell-free assay, competition with immobilised ligand: 82.8%
Serine/threonine-protein kinase WNK2 (WNK2, Homo sapiens, UniProt Q9Y3S1); cell-free assay, competition with immobilised ligand: 100%
Mitogen-activated protein kinase kinase kinase 14 (MAP3K14, Homo sapiens, UniProt Q99558); cell-free assay, competition with immobilised ligand: 100%
Mitogen-activated protein kinase kinase kinase 1 (MAP3K1, Homo sapiens, UniProt Q13233); cell-free assay, competition with immobilised ligand: 78.3%
Serine/threonine-protein kinase PAK 2 (PAK2, Homo sapiens, UniProt Q13177); cell-free assay, competition with immobilised ligand: 89.8%
LIM domain kinase 2 (LIMK2, Homo sapiens, UniProt P53671); cell-free assay, competition with immobilised ligand: 89%
Misshapen-like kinase 1 (MINK1, Homo sapiens, UniProt Q8N4C8); cell-free assay, competition with immobilised ligand: 88.9%
TGF-beta receptor type-1 (TGFBR1, Homo sapiens, UniProt P36897); cell-free assay, competition with immobilised ligand: 98.2%
Platelet-derived growth factor receptor beta (PDGFRB, Homo sapiens, UniProt P09619); cell-free assay, competition with immobilised ligand: 74.8%
Ribosomal protein S6 kinase alpha-6, N-terminal kinase domain (RPS6KA6, Homo sapiens, UniProt Q9UK32); cell-free assay, competition with immobilised ligand: 80.4%
Tyrosine-protein kinase Lck (LCK, Homo sapiens, UniProt P06239); cell-free assay, competition with immobilised ligand: 41.6%
cGMP-dependent protein kinase 2 (PRKG2, Homo sapiens, UniProt Q13237); cell-free assay, competition with immobilised ligand: 82.7%
Serine/threonine-protein kinase TAO2 (TAOK2, Homo sapiens, UniProt Q9UL54); cell-free assay, competition with immobilised ligand: 48.2%
Casein kinase I isoform gamma-2 (CSNK1G2, Homo sapiens, UniProt P78368); cell-free assay, competition with immobilised ligand: 77.6%
AP2-associated protein kinase 1 (AAK1, Homo sapiens, UniProt Q2M2I8); binding: 95.9%
Serine/threonine-protein kinase ICK (CILK1, Homo sapiens, UniProt Q9UPZ9); binding, competition with immobilised ligand: 74.1%
Dual specificity protein kinase CLK4 (CLK4, Homo sapiens, UniProt Q9HAZ1); cell-free assay, competition with immobilised ligand: 93.3%
Serine/threonine-protein kinase WNK3 (WNK3, Homo sapiens, UniProt Q9BYP7); cell-free assay, competition with immobilised ligand: 61.9%

Series 2
Target: JUND, bZIP domain (human)
Method: DHFR protein complementation
Matrix: yeast
Notes: single substitutions, most at no-binding floor
Relative to: wild-type JUN-FOS pair
Direction: higher = stronger binding
Measurement: binding fitness
Starting sequence: JUN, bZIP domain (human); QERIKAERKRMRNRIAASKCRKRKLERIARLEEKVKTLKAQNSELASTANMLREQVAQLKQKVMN; partner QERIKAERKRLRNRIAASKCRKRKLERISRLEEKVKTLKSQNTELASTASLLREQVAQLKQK
Q55A: -1.1 natural log
T37A: -0.536 natural log
Q58W: -1.14 natural log
S43L: -0.605 natural log
I28Q: -1.04 natural log
E54G: -0.894 natural log
Q55H: -1.07 natural log
R53T: -1.16 natural log

Series 3
Target: ABI1, truncated, D143A, DHFR fusion (Arabidopsis thaliana)
Method: DHFR PCA, deep sequencing
Matrix: yeast
Notes: methotrexate growth selection, single substitutions
Added: (+)-ABA 58 µM
Relative to: wild-type fitted maximum
Direction: higher = stronger binding
Measurement: relative binding score
Starting sequence: PYL1, truncated, DHFR fusion (Arabidopsis thaliana); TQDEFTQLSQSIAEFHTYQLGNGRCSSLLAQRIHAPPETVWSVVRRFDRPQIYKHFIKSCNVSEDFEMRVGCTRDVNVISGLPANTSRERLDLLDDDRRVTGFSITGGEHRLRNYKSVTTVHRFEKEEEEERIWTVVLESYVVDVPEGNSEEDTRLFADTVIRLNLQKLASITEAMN
E130M: 91%
L112P: 14.5%
L94G: -2.52%
L28C: 72.7%
N177V: 78.6%
S117W: -13.5%
V62F: 62.7%
D153F: -4.06%

Series 4
SMILES: Cc1ccc(NC(=O)c2ccc(CN3CCN(C)CC3)cc2)cc1Nc1nccc(-c2cccnc2)n1
Effect on: enzyme activity
Action: inhibitor
Concentration: 0.5 µM
Relative to: control
Measurement: remaining activity
Serine/threonine-protein kinase 17A (STK17A, Homo sapiens, UniProt Q9UEE5): 92.4%
Cyclin-dependent kinase 1, with cyclin B (CDK1, Homo sapiens, UniProt P06493): 103%
Cyclin-dependent kinase 4, with cyclin D3 (CDK4, Homo sapiens, UniProt P11802): 107%
Testis-specific serine/threonine-protein kinase 2 (TSSK2, Homo sapiens, UniProt Q96PF2): 100%
Mitogen-activated protein kinase kinase kinase kinase 4 (MAP4K4, Homo sapiens, UniProt O95819): 99.8%
Homeodomain-interacting protein kinase 4 (HIPK4, Homo sapiens, UniProt Q8NE63): 99.5%
cAMP-dependent protein kinase catalytic subunit gamma (PRKACG, Homo sapiens, UniProt P22612): 106%
MAP kinase-activated protein kinase 3 (MAPKAPK3, Homo sapiens, UniProt Q16644): 97.8%
Calcium/calmodulin-dependent protein kinase type II subunit beta (CAMK2B, Homo sapiens, UniProt Q13554): 97.6%
Serine/threonine-protein kinase 16 (STK16, Homo sapiens, UniProt O75716): 103%
Ephrin type-B receptor 1 (EPHB1, Homo sapiens, UniProt P54762): 102%

Excerpt of the above (series 1):
Tyrosine-protein kinase Lck (LCK, Homo sapiens, UniProt P06239); cell-free assay, competition with immobilised ligand: 41.6%
Dual specificity protein kinase CLK4 (CLK4, Homo sapiens, UniProt Q9HAZ1); cell-free assay, competition with immobilised ligand: 93.3%
Mitogen-activated protein kinase kinase kinase 1 (MAP3K1, Homo sapiens, UniProt Q13233); cell-free assay, competition with immobilised ligand: 78.3%
